Measurements pooled from the literature.
Every numbered part comes from another study and shows a few of its results, in no order. Positions count from the first letter of the parent shown.

Block 1
Target: CEP164, C-terminal peptide (human)
Method: DHFR complementation, deep sequencing
Sample: yeast
Notes: single substitutions, model-inferred values
Reference: wild type
Reading: higher = weaker binding
Starting sequence: PDZK1, PDZ domain 2 (human); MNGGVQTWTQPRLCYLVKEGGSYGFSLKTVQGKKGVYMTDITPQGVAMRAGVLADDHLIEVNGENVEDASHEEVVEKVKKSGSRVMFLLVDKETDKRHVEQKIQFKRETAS; partner HNRVKVYRF
Substitution | binding free energy change
L16F | 1.33 kcal/mol
K102F | -0.0887 kcal/mol
V74M | 1.04 kcal/mol
E93M | -0.11 kcal/mol
K33H | 0.297 kcal/mol
V99C | -0.137 kcal/mol
A47P | 1.05 kcal/mol
N65P | 0.105 kcal/mol
E93I | -0.112 kcal/mol
V36P | 1.45 kcal/mol
A50C | 0.153 kcal/mol
H71Y | 0.447 kcal/mol
A54M | 0.191 kcal/mol
E67I | -0.00502 kcal/mol
V78C | 0.938 kcal/mol

Block 2
Target: Histone acetyltransferase KAT6A, both winged helices, GST fusion (KAT6A, Homo sapiens, UniProt Q92794, residues 1-181)
Method: protein binding microarray
Form: double-stranded DNA, one strand shown
Sample: in vitro
Tested at: not given
Notes: 8-mer, flanks averaged, mean of 2 arrays, mostly near background
Reference: not given
Reading: higher = stronger binding
Residues (chain): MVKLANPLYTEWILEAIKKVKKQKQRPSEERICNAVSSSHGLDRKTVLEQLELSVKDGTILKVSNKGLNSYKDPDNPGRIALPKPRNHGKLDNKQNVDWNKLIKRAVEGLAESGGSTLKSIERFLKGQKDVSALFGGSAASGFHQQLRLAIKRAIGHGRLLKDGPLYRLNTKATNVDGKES
Strand | E-score
AGTCTCCA | -0.198
ACGAGGCC | -0.0787
ACAGTGAC | 0.0515
ACGAGGGC | -0.0483
CAGTGTCA | -0.0325
CGAGTAGC | 0.247
AATTACTG | -0.137
GACACAAC | -0.0936
GCGAGCGA | 0.087
AGCCGTAA | 0.277
GAGATAGA | -0.179
CCTAGAAA | -0.0708
GGGGGCTA | -0.22
GACGCGAC | 0.221
ATCCCCCG | 0.0578
TCCACGAA | 0.055
ACGGCACC | 0.261
AGTGTCAA | -0.0722

Block 3
Target: Protein max, full length (MAX, Homo sapiens, UniProt P61244-2, residues 1-151)
Method: protein-binding microarray
Form: double-stranded DNA, one strand shown
Sample: in vitro
Tested at: not given
Notes: k-mer, scored over probes, only values ≥0.25
Reading: higher = stronger binding
Strand | E-score
GAGTGCAC | 0.315
ACTCGTGC | 0.374
CCACATGG | 0.487
CCCCGTGA | 0.351
CGTGGAAG | 0.364
ACGTGACA | 0.453
ATGCGGTC | 0.259
ACGCGCCA | 0.29
ATGAGCAC | 0.29
CGTGTGAC | 0.354
CGGCGTGA | 0.336
CGCGTGCC | 0.437
CGAGCACG | 0.398
ACGGGGGG | 0.255
ACACCTGT | 0.342
TGCGCACA | 0.346
CATGATCA | 0.258
CGTGCCAC | 0.388
ATCATGCG | 0.412
AGTACACG | 0.353
AGAACATG | 0.291

Block 4
Target: CCNA1, cyclin fold, Cln2 fusion (human)
Method: yeast growth competition, sequencing
Sample: yeast
Notes: weak parent motif
Reference: not given
Reading: higher = stronger binding
Starting sequence: CDC6 docking peptide (human); TLKGRRLVFDNQL
Substitution | normalised enrichment score
ELKGRRLVFDNQL [T1E] | 0.205
TLKGRRLLFDNQL [V8L] | 0.535
TLKRRRLVFDNQL [G4R] | 0.0178
TLKGRRLVYDNQL [F9Y] | 0.279
TLLGRRLVFDNQL [K3L] | 0.381
TLKGCRLVFDNQL [R5C] | -0.143
TLKGYRLVFDNQL [R5Y] | -0.0685
TLKGRRLGFDNQL [V8G] | 0.201
TLKGRRLVFDNCL [Q12C] | 0.142
TLKGRVLVFDNQL [R6V] | 0.441
TLIGRRLVFDNQL [K3I] | 0.511
TLKGRRFVFDNQL [L7F] | 0.275
TAKGRRLVFDNQL [L2A] | 0.0302
TLKGRRLVFQNQL [D10Q] | 0.221
TLKGRRLVFDNQK [L13K] | -0.0731
TLKGRRLVFDNRL [Q12R] | 0.363
TLKGRREVFDNQL [L7E] | 0.465
TLKGRRLVFDNQG [L13G] | 0.0504
TLKARRLVFDNQL [G4A] | 0.236
TLKGRRDVFDNQL [L7D] | 0.21
TLKGRRQVFDNQL [L7Q] | 0.294
TLKGRRLVWDNQL [F9W] | 0.697
TLKDRRLVFDNQL [G4D] | 0.41

Block 5
Target: RING finger protein unkempt homolog, zinc fingers 1-6, SBP tag (UNK, Homo sapiens, UniProt Q9C0B0, residues 30-357)
Sequence of UniProt Q9C0B0 (30-357, looked up): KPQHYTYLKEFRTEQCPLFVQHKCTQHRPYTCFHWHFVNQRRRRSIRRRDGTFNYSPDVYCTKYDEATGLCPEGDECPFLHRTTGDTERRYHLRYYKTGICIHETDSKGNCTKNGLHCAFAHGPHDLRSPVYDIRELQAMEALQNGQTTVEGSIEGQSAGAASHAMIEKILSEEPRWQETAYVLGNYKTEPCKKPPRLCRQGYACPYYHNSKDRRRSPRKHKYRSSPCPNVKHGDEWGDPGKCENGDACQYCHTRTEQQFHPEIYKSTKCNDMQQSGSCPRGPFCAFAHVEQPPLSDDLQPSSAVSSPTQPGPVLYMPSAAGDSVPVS
Method: RNA Bind-n-Seq
Form: RNA
Sample: in vitro
Tested at: 100 nM
Notes: RNA with constant flanks, vertebrate orthologous sites, ends assumed
Reference: input RNA pool
Reading: higher = stronger binding
Strand | bound/input enrichment
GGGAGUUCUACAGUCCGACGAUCAAAUAUACUUCAUGCCAUGGACUCCAUAUCGCACUGAUACUUUGAUAGAGUAUGCUUCUUUAGAGGACUUCCAAAAUGGACGACAACAGACAACUUACAAACUUCCAAAUCGAGUGGAUGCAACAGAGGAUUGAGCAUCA | 1.15 ratio
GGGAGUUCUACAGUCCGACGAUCUGGGGACAUACUCUGGGGAGCUGCCGGGCGAGUAACAUCGUUUGAUUUAUGACCUUGACUUACUACAUAGGCUUUUUUUUUAAUUUAAAAAUAUUGACUUCACAAAAGUUUAUUCUAAGGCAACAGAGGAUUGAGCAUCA | 0.768 ratio
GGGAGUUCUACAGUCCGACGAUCAUUGUGUGUGAAAUAUGUCUGAGAAGAGAUGUAGCAUUCUAUAAAUAUUACCAAGUAAUUUAGCUAUAAUAUUUUUAGAUAUAAAUUACAUGUCAAGCAUUUAAAGUAUGAAUUUGAGGUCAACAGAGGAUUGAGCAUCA | 0.302 ratio
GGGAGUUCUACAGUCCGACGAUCGGUUGAUGUUCUGAAGAACCACUUGGUGAAAGAAGGUCGAGUAGAUGAAGAAAUUGCGCUUAGAAUUAUCAAUGAGGGUGCUGCCAUCCUUCGGAGAGAGAAAACCAUGAUAGAAGUAGACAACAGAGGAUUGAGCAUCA | 0.546 ratio
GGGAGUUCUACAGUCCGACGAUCUUGGGACCAACUCCCCAAAUAAGAAUACUAGUAAAAAAAAUAAGCAAAAUGAUAUUUGUAUAGAAAAAACAGAAGUUAAAUCGUGUAAAGUAAAUGCCGCCAGUGUUCCAGGUCCUAAAGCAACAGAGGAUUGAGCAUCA | 3.01 ratio
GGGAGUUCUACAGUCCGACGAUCGUUCAUUUUGGUCUCCUCUUCCUCCAUCCCCUCUCCCGGACCCAUAUAAUUUUUUUUUAUGCAUAUUUAGUAACACUAGCUCUCCAAGUUUAAUUUAGGAAAAUGAUUCUCAAGAACAAACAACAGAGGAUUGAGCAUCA | 3.41 ratio
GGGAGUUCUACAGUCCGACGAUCACGUAUUUAUACUGGCCAAACAUUUUUGACUUUGUAUUUCUUUGUCCUUUUUUGGUAGUUCUUGUUGUUACCCGCACCAUUUUUAUGUCUCCUUCACUGAAGGGCUAGAGUUUUAACUUUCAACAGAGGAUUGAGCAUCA | 0.661 ratio
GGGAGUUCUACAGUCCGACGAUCCAAUUCCAUGGUGGAGGGUUCCGAACUCAAAAAGGUCCGCUCCAACUCUCGAAUUUACCACAGGUAUUUUUUGCUGGACGCCGACAUGCAGAGCCUGAGGUGGGAACCAUCCAAGAAGGACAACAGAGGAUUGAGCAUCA | 0.225 ratio
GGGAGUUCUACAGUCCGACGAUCAAAUCUACUUCAUGCCUUGGACUCCGUACCGAACAGACACUCUAAUCGAGUACUCCUCCUUGGACGACUUUCAAAAUGCCCGUCAAACCAUCACCUACAAGCUGCCGCACCGGGUGGAUGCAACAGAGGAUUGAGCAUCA | 0.368 ratio
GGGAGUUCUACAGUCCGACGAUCCUACACCAGAUAUUUUAACUGUUUUAAAGUUACAAACAAGCUUUGCUUUUUGCAUUUAAAUAGAAUACUUUUAUAUUUUAAGUGCUUCAGGUGUGUGGAGGUGUUAGUUUGCUCUUAUAACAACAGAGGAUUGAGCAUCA | 0.606 ratio
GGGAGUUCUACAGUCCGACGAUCGGGUGGCCGGUGGGGGAAUCCCAUGCCCUGGCCUUGCCUCCCCUCCCUGCCACCCGCUCCUAGUUAUUUUUUUUUUUAACCACCAUGUGAUUAAGGUCGGCACUGCCUCCCCCGACCCGCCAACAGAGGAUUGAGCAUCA | 2.96 ratio

Block 6
Target: ABI1, truncated, D143A, DHFR fusion (Arabidopsis thaliana)
Method: DHFR PCA, deep sequencing
Sample: yeast
Notes: methotrexate growth selection, single substitutions
Added: (+)-ABA 0.0091 µM
Reference: wild-type fitted maximum
Reading: higher = stronger binding
Starting sequence: PYL1, truncated, DHFR fusion (Arabidopsis thaliana); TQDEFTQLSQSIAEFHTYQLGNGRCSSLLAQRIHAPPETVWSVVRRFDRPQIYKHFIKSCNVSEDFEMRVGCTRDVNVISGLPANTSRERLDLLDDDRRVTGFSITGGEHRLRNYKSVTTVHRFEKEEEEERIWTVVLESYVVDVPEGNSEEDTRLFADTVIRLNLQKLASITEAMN
Substitution | relative binding score
W134Y | 77.5%
L29H | 23.7%
D159L | -4.41%
D144H | 0.57%
S63F | -3.32%
E128G | 71.6%
L138M | 7.03%
G71R | -3.49%
I12D | 0.393%
L156F | 9.16%
K168Y | 5.71%
P146G | 11.7%
A30K | 14.4%
T17E | 2.41%
V143N | -1.8%
S9E | 38%
S9V | 20.2%

Other studies, line by line
Substance | target | assay | test system | setting | scale | measurement | result
PhoQ, residues 284 288 289 292 302 303 SIHLQL | PhoP, residues 12 14 15 18 19 FWNTL (Escherichia coli, UniProt P23836) | Sort-seq, item: YFP reporter | E. coli | PhoQ-PhoP variant library, added: 10 µM Mg2+ | reference: high Mg2+ state, higher = stronger signaling | fold induction | 14.3

Repeated from above (block 2):
Strand | E-score
AGTCTCCA | -0.198
ACGAGGCC | -0.0787
ACAGTGAC | 0.0515
ACGAGGGC | -0.0483
CAGTGTCA | -0.0325
CGAGTAGC | 0.247
AATTACTG | -0.137
GACACAAC | -0.0936
GCGAGCGA | 0.087
AGCCGTAA | 0.277
GAGATAGA | -0.179
CCTAGAAA | -0.0708
GGGGGCTA | -0.22
GACGCGAC | 0.221
